# Measured values gathered from unrelated publications.
# A part holds a random share of what one study measured. Substitutions count along the parent as printed.

# Series 1
# Molecule: PhoQ, residues 284 288 289 292 302 303 GANMMA
# Method: Sort-seq
# Refers to: YFP reporter
# Matrix: E. coli
# Setting: PhoQ-PhoP variant library
# With: 10 µM Mg2+
# Baseline: high Mg2+ state
# Reading: higher = stronger signaling
target,fold induction
"PhoP, residues 12 14 15 18 19 SHWTV (Escherichia coli, UniProt P23836)",1.64
"PhoP, residues 12 14 15 18 19 STHWV (Escherichia coli, UniProt P23836)",9.22
"PhoP, residues 12 14 15 18 19 QYCSL (Escherichia coli, UniProt P23836)",9.48

# Series 2
# Target: CCNE2, cyclin fold, Cln2 fusion (human)
# Method: yeast growth competition, sequencing
# Matrix: yeast
# Setting: strong parent motif
# Baseline: not given
# Reading: higher = stronger binding
# Starting sequence: GMNC docking peptide (human); KNAKRNLSSEFAN
Change,normalised enrichment score
A3I,0.926
E10M,1.29
F11Q,0.466
N6Q,0.531
L7E,0.311
N6S,0.513
A3G,0.736
F11T,0.823
A3H,0.709

# Series 3
# Target: RNA binding protein fox-1 homolog 2, RRM domain, GST-SBP tag (RBFOX2, Homo sapiens, UniProt O43251-10, residues 100-194)
# Method: RNA Bind-n-Seq
# Molecule type: RNA
# Matrix: in vitro
# Concentration: 365 nM
# Setting: natural RNA segment, single round, ends assumed
# Baseline: no-protein control
# Reading: higher = stronger binding
# All sequences stand within: GGGAGUUCUACAGUCCGACGAUC … UGGAAUUCUCGGGUGCCAA
# Residues (chain): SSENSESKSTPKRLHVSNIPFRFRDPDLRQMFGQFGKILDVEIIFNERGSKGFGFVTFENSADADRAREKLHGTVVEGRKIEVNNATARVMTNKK
Sequence,RBNS enrichment (R)
UGUGUGCCUGGGAGCAGGUUACAACUCUGGUUUGACUUUCAUUUUGUUGAGAAGCUUCUGUUUUAAGGAAUUUCUCCUUCUUGUCUCAUUCCUGCCUUUCCUGGGAAGGG,0.33
UUUUAUUUAACUUGGGGAUGGAAUGGGGAUAGCAUACAUUUUAUUUGUACAAUAUUUAACAAUCACUUAUCCAAGGUGGGGUUUUAUGGGGAUUUUAAGCUUUCUGUUAA,0.724
GUGGGUUUCUGACAGCCCAUGGGAAUGCCCUGAAACUACUGUAUCUGAUGUUUGUUUUCGAUGAGGUUCCAUGUUUUGUUUUCUUGGGAAUAAAUUAAUAUAUUGUUUUC,0.929
AUGGGUCUGCUCACCACCCUCUUCAUGCUUUUCAUAUUCACCUAUGGUCUGCACAUGAUACUCAGCCUAAAGACCAUGGAUCGCUUUGAUGACCACAAGGGCCCCACCAU,0.303
GAGACCAUUCUCAAGGGUAGGUGUUCUGCAGCCCCGAAUCAAAUCAUGUGAAAACCCCUUAAAUGAUCAUUGGUUCUCAACCUGUGCCAGCAUACUGCCUCUCUGUCUCC,0.334
AGCCCUGUGCUCCGUGACUCCCACGCAUGAACUCAUCAGGGCCGUGUCUACUCCUUAAUUGUCACAUUAGAAUUUGGUCGGCCAUUGUUUUGGUUAUGUUGCUGAUGUAA,15.7
UUUGGAAAGAUGUUAAGCAUUUAUUUUUAGUUAAAAAUAAAAACUAAUUUCAUACUAUUUAGAUUUUCUUUUUUAUCUUGCACUUAUUGUCCCCUUUUUAGUUUUUUUUG,0.927
AUACUUUGCUGAUCUUUAAGCUAUCCAUGGGGGAAAUUUUAUACCAACGAGUUAAUAAUUCUCAUUCAUCGUUUACACAAUGUAACAUGUGUCAUACUGGGGCCAGCGAG,0.503
UCUGACAAAGUGUGCCGGUCUAACAAUAAAAUAGGGUUUUGUAAUCUUCUGGUUGGUAAAAGAUAUGUUCCGGAGAAUAUAGGAACAUGCCCGGAGAGACCUAACCUGUA,0.438

# Series 4
# Target: Fragile X messenger ribonucleoprotein 1, C-terminal low-complexity region (Fmr1, Mus musculus, UniProt P35922)
# Method: RNA Bind-n-Seq
# Molecule type: RNA
# Matrix: in vitro
# Concentration: 200 nM
# Setting: whole 134-nt RNA, ends assumed
# With: 150 mM KCl
# Baseline: input library
# Reading: higher = stronger binding
# All sequences stand within: GGGAGUUCUACAGUCCGACGAUC … UGGAAUUCUCGGGUGUCAAGG
Sequence,log2 enrichment
ACCAUGCAGGUGGGCAUCUUUGGGAAGUGGGGCAAGGGGGGGAUAGGGAAAAGGGUAACACUUUGGGAACAGGUGGUCCCAGGUCGUUUC,0.687
GUCCUGUGCUACACAUCGUAUGUACCGAAUCGGGAAAAAAGGAAAAAAGGAAAAAAGGGAAAGUAUUAUGUUACGCCGUUCGGAUCUGCA,-0.48
CAAGUCCUGUGCUACACAUCGUAUGUACCGAAUCGGGUGGGUUUGGGAAAAAGGGAAAGUAUUAUGUUACGCCGUUCGGAUCUGCACUUC,1.04
GUCCUGUGCUACACAUCGUAUGUACCGAAUCGGGGUUUUUGGGGAGGGGAAAAAGGGGAAAGUAUUAUGUUACGCCGUUCGGAUCUGCAC,0.271
CACAGACAAAAAGCACCCACACAGACACAGAGGGAAGGGGUUGGGAUGGGGACAGGGUGCACAGCAGGGCGGGGUAGGACCCCAGCCCCU,1.14
AAGUCCUGUGCUACACAUCGUAUGUACCGAAUCGGGAAAGGGAAAAAAAGGGAGGGAAAGUAUUAUGUUACGCCGUUCGGAUCUGCACUU,0.502
UGGGAGGUGGAUUUUGUUUAUUUUUUUAGCUCAUUUCCAGGGGUGGGAAUUUUUUGUUAAUAUGUGUCAUGAAUAAAGUUGUUUUUGAAA,0.284
GCAGGAAGUAAAAACAAAUGGAAAUGCUUCGGAUAGUGGCAGGGGUGGGGGUUGCUAAGAAAAGGGUGGGAUGGGAGUGGGUAAAGAGUU,0.0252
GUCCUGUGCUACACAUCGUAUGUACCGAAUCAAAUUUAAAUUUUUAAACCCCCCCAAAAAAGUAUUAUGUUACGCCGUUCGGAUCUGCAC,0.257
GCAGGAAGUAAAAACAAAUGGAAAUGCUUCGGAUAGUGGCAGGGGUGGGGGUUGCUAAGGAAAGGGUGGGAUGGGAGAGGGUAAAGAGUU,0.492
CACAGACAACACGCACCCACACAGACACAGAGGGAAGGGGUUGCGAUGGGGACAGGGUGCACAGCAGGGCGGGGUAGGACCCCAGCCCCU,0.864
CAAGUCCUGUGCUACACAUCGUAUGUACCGAAUCGGGUUUUUGGGAGGGAAAGGGAAAGUAUUAUGUUACGCCGUUCGGAUCUGCACUUC,0.821
CACAGACAACACGCACCCACACAGUCACAGAGGGAAGGGGUUGGGAUGGGGACAGGGUGCACAGCAGGGCGGGGUAGGACCCCAGCCCCU,1.39

# Repeated from above (series 2):
Change,normalised enrichment score
A3I,0.926
A3H,0.709
E10M,1.29
N6Q,0.531
L7E,0.311
